# Results gathered from unrelated publications.
# Numbered parts are unrelated; each lists some results of a single study.

# Set 1
# Target: Diamine acetyltransferase 1 (Homo sapiens, UniProt P21673)
# Action: inhibitor
# Concentration: 10 µM
# Relative to: control
# Target sequence (P21673 1-171): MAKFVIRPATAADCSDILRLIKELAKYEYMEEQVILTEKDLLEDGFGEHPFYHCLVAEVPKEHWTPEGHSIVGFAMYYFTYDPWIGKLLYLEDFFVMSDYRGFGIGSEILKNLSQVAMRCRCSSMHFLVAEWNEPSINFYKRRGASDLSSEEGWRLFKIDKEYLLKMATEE
SMILES,remaining activity [%]
C=CCSSCC=C,92.1
CCNCC,97.7
O=c1ccc2cc3ccoc3c(O)c2o1,99.9
COc1c(O)cc2c3c1-c1ccccc1C[C@H]3N(C)CC2,85.9
COc1ccc(C=O)cc1O,110
COc1cc([C@@H]2OC[C@@H]3[C@H]2CO[C@H]3c2cc(OC)c(O[C@@H]3O[C@H](CO)[C@@H](O)[C@H](O)[C@H]3O)c(OC)c2)cc(OC)c1O[C@@H]1O[C@H](CO)[C@@H](O)[C@H](O)[C@H]1O,119
C[C@@H]1O[C@@H](O[C@@H]2C=C3CC[C@@H]4[C@H](CC[C@]5(C)[C@@H](c6ccc(=O)oc6)CC[C@]45O)[C@@]3(C)CC2)[C@H](O)[C@H](O)[C@H]1O,87

# Set 2
# SMILES: O=C1CCC(N2Cc3c(ccc4c3OCC43CCN(Cc4ccccc4)CC3)C2=O)C(=O)N1 (stereo not drawn)
# Effect on: metabolic stability
# Medium: liver microsomes
# Concentration: 1 µM
host,time,compound remaining
human,5 min,107%
mouse,15 min,87.6%
mouse,30 min,70.5%
rat,15 min,90.4%
human,15 min,91.1%
human,0 h,100%
rat,0 h,100%
rat,30 min,80.2%
rat,45 min,78.2%
mouse,5 min,93.8%
rat,5 min,100%
human,30 min,81.3%
mouse,45 min,64.9%
human,45 min,72%

# Set 3
# Organism: Sarcocystis neurona
# Effect on: parasite growth
# Concentration: 10 µM
# Time: 96 h
# Relative to: untreated
SMILES,log2 fold change
CCCCCCNC(=O)n1cc(F)c(=O)[nH]c1=O,-2.58
O=C(O)CCCc1ccc(N(CCCl)CCCl)cc1,-0.12
O=C1Nc2ccc(Cl)cc2C(c2ccccc2Cl)=NC1O (stereo not drawn),0.31
Oc1cc(Cl)ccc1Oc1ccc(Cl)cc1Cl,-0.29
O=c1c2ccccc2[se]n1-c1ccccc1,0.29
CC[C@]1(O)CC[C@H]2[C@@H]3CCC4=CCCC[C@@H]4[C@H]3CC[C@@]21C,0.37
CN1CCN(CC/C=C2/c3ccccc3Sc3ccc(S(=O)(=O)N(C)C)cc32)CC1,-1.87
O=c1c(-c2ccccc2)c1-c1ccccc1,-1.69

# Set 4
# Cell line: HEK-293T-ACE2-TMPRSS2
# Method: cell count
# Concentration: 10 µM
Compound,viability [%]
CCOc1ccccc1CN1CCN(Cc2ccc3nsnc3c2)CC1CCO (stereo not drawn),111
CC(C)NC(=O)c1cccc(-c2noc(-c3cc4ccccc4[nH]3)n2)c1,71
O=C(Cn1ncc(Cl)c(Cl)c1=O)NC1CCCCC1,65
COc1ccc(CN2CCN(Cc3nc4ccccc4s3)CC2CCO)cc1C (stereo not drawn),100
Cc1nc(Sc2nnc(-c3ccccc3)n2C)c2sc(=S)n(-c3ccccc3)c2n1,66
CCCc1nc(CN(CC)C(=O)c2csnn2)no1,68
O=C(Cn1cc2ccccc2n1)N1CCCC(Nc2cccc(F)c2)C1 (stereo not drawn),108
O=C(O)c1cnc(/C=C/c2csc(-c3ccco3)n2)s1,66
CCc1nc(-c2ccc(C(=O)NCCc3ccc(Cl)cc3)cc2)cs1,104
CCOc1ncccc1C(=O)Nc1ccc(C)cc1S(=O)(=O)N(CC)CC,67
O=C1CN(c2ncnc3sc4c(c23)CCCC4)CCN1,97
Nc1nc(Nc2ccccc2)sc1C(=O)c1ccccc1Cl,84
CN1CCCn2nc(C(=O)NCCSc3nnnn3C)cc2C1,66
CCOC(=O)c1cc(C#N)c(Sc2nnc(SC)s2)nc1C(F)(F)F,67
CC(C)CCNC(=O)c1cccc(Nc2ccc(-c3ccccc3)nn2)c1,71
CNC(=O)CC1C(=O)NCCN1Cc1c(C)cc(C)cc1-n1cccn1 (stereo not drawn),87
Cc1cc(C2CCCN2Cc2cccc(C(=O)Nc3nccs3)c2)no1 (stereo not drawn),85
C=CCNc1nnc(Sc2ncnc3ccsc23)s1,96
O=c1c(Cl)c(Cl)cnn1Cc1ccc([N+](=O)[O-])cc1,73
CC(C)Oc1ccc(C(=O)Nc2nc3c(s2)CN(Cc2ccccc2)CC3)cc1,73
COc1ccc(Cn2ccc3nc4ccn(-c5ccn[nH]5)c(=O)c4cc3c2=O)cc1,111
CCSc1ncnc2c1sc1nc(C(C)C)c3c(c12)CC(C)(C)OC3,108
CCOCC(=O)N1CC(F)(F)C[C@H]1c1nc(C(=O)NC)no1,99
O=S(=O)(c1csc(-c2ccc(F)cc2)n1)N1CCC1c1ccccc1 (stereo not drawn),65
CN(Cc1cc(-c2ccccn2)no1)C1CCC2(CCNCC2)CC1,65

# For quick reference, copied from above (set 4):
Compound,viability [%]
Cc1nc(Sc2nnc(-c3ccccc3)n2C)c2sc(=S)n(-c3ccccc3)c2n1,66
CCCc1nc(CN(CC)C(=O)c2csnn2)no1,68
O=C(Cn1cc2ccccc2n1)N1CCCC(Nc2cccc(F)c2)C1 (stereo not drawn),108
O=C(O)c1cnc(/C=C/c2csc(-c3ccco3)n2)s1,66
CCc1nc(-c2ccc(C(=O)NCCc3ccc(Cl)cc3)cc2)cs1,104
CCOc1ncccc1C(=O)Nc1ccc(C)cc1S(=O)(=O)N(CC)CC,67
O=C1CN(c2ncnc3sc4c(c23)CCCC4)CCN1,97
